Experimental data collected from several papers.
Each line is one published result; not all experiments were run side by side. “And” joins repeats or separate records; there may be more than shown. Numbers after ± are the reported error.

The IL-1β inhibition of `CN1CCC[C@]1(C)/C=C/S(=O)(=O)NC(=O)Nc1c2c(cc3c1CCC3)CCC2` is reported as 73% (human, whole blood ex vivo; 50 mg single dose, 24 h, single ascending dose, together with: LPS and ATP).
`COC1OC(C)C(OS(=O)(=O)O)C(OC2OC(C)C(OS(=O)(=O)O)C(OC3OC(C)C(OS(=O)(=O)O)C(OC4OC(C)C(OS(=O)(=O)O)C(OC5OC(C)C(OS(=O)(=O)O)C(OC6OC(C)C(OS(=O)(=O)O)C(OS(=O)(=O)O)C6OS(=O)(=O)O)C5OS(=O)(=O)O)C4OS(=O)(=O)O)C3OS(=O)(=O)O)C2OS(=O)(=O)O)C1OS(=O)(=O)O` (stereo not drawn) has a prothrombin time of 15.4 ± 0.5 s (human plasma; 128 µg/mL).
`CCC(CC)n1c(Cc2ccco2)nc2cc(C(=O)N[C@@H](CC(=O)O)c3ccccc3)ccc21`: “lung wet/dry weight ratio” “decreased” (mouse, HFpEF model (HFD plus L-NAME); ip, 20 mg/kg/day, 2 wk).
For `Oc1cc2c(cc1O)C(c1ccco1)NCC2` (stereo not drawn), the IC50 was 8.4 µM (ABTS scavenging; 10 min, dark).
`COC1OC(C)C(OC2OC(C)C(OS(=O)(=O)O)C(OC3OC(C)C(OC4OC(C)C(OS(=O)(=O)O)C(OC5OC(C)C(OC6OC(C)C(OS(=O)(=O)O)C(OC7OC(C)C(OC8OC(C)C(OS(=O)(=O)O)C(OC9OC(C)C(OC%10OC(C)C(OS(=O)(=O)O)C(OC%11OC(C)C(OC%12OC(C)C(OS(=O)(=O)O)C(OS(=O)(=O)O)C%12O)C(OS(=O)(=O)O)C%11O)C%10O)C(OS(=O)(=O)O)C9O)C8O)C(OS(=O)(=O)O)C7O)C6O)C(OS(=O)(=O)O)C5O)C4O)C(OS(=O)(=O)O)C3O)C2O)C(OS(=O)(=O)O)C1O` (stereo not drawn): “prothrombin time prolongation” 0.97 fold (human plasma; 128 µg/mL; relative to: control).
`Nc1nc2cc(CC[C@H]3C[C@@H](n4ccc5c(N)ncnc54)[C@H](O)[C@@H]3O)ccc2cc1Br` gave a tumour volume of 378 ± 64 mm3 (NCI-H441 xenograft, mouse; 1.0 mg/kg/day, day 38).
`COC1OC(C)C(O)C(OC2OC(C)C(O)C(OC3OC(C)C(O)C(OC4OC(C)C(O)C(OC5OC(C)C(O)C(OC6OC(C)C(O)C(OC7OC(C)C(O)C(OC8OC(C)C(O)C(OC9OC(C)C(O)C(OS(=O)(=O)O)C9OS(=O)(=O)O)C8OS(=O)(=O)O)C7OS(=O)(=O)O)C6OS(=O)(=O)O)C5OS(=O)(=O)O)C4OS(=O)(=O)O)C3OS(=O)(=O)O)C2OS(=O)(=O)O)C1OS(=O)(=O)O` (stereo not drawn) gave a prothrombin time of 15.1 ± 0.7 s (human plasma; 128 µg/mL).
The inhibition of `CC(=O)[O-].O.O.O.O.[Co+2].[O-]c1ccc(Br)cc1C=NCCN1CCOCC1` is reported as 12.8% (nitric oxide scavenging; 40 µM).
`COc1cc(O)ccc1CCC(c1ccc(O)cc1)c1cc2c(c(C)c1O)OC(c1ccc(O)cc1)CC2` (mixture of isomers) has an amount of 64 ± 35 pg/mL blood (refers to: 4-HDHA; human whole blood; 30 µM, together with: Escherichia coli).
`CN1CCCNC(=O)c2cccc(c2)C(=O)NCCCN(C)CCCNc2cccc3c2C(=O)c2cccc(c2C3=O)NCCC1` has a tumour volume of 205 mm3 and 332 mm3 and 198 mm3 and 389 mm3 and 267 mm3 (KSN/Slc nude mice, SAS xenograft; dose not given, day 10, 240 h).
`COC1OC(C)C(OS(=O)(=O)O)C(OC2OC(C)C(OS(=O)(=O)O)C(OC3OC(C)C(OS(=O)(=O)O)C(OC4OC(C)C(OS(=O)(=O)O)C(OC5OC(C)C(OS(=O)(=O)O)C(OC6OC(C)C(OS(=O)(=O)O)C(OC7OC(C)C(OS(=O)(=O)O)C(OC8OC(C)C(OS(=O)(=O)O)C(OS(=O)(=O)O)C8O)C7O)C6O)C5O)C4O)C3O)C2O)C1O` (stereo not drawn) gave a prothrombin time of 14.8 ± 0.3 s (human plasma; 128 µg/mL).
`COc1cc(/C=C2\CN(C(C)C)C/C(=C\c3cc(Cl)c(O)c(OC)c3)C2=O)cc(Cl)c1O` has an IC50 of 369 µg/mL (ABTS scavenging; 20 min).
For `CCN(C(=O)c1cc(F)ccc1Oc1nncnc1N1CCC2(C1)CN([C@H](CCCN(C)CCOC)C(C)C)C2)C(C)C`, “increase in life span” read 108% (mouse, sample A AML PDX model; 30 mg/kg).
`COC1OC(C)C(OC2OC(C)C(OS(=O)(=O)O)C(OC3OC(C)C(OS(=O)(=O)O)C(OS(=O)(=O)O)C3OS(=O)(=O)O)C2OS(=O)(=O)O)C(OS(=O)(=O)O)C1OS(=O)(=O)O` (stereo not drawn) has a prothrombin time of 15.2 ± 0.1 s (human plasma; 128 µg/mL).
With `COc1ccc(NC(=O)c2ccc3[nH]c(-c4ccc(N(C)C)cc4)nc3c2)cn1` the tumour volume was 47 mm3 and 91.6 mm3 and 81.7 mm3 and 125 mm3 and 202 mm3 (Lewis lung carcinoma, mice, syngeneic graft, subcutaneous; intraperitoneal, 50 mg/kg daily, day 3).
For `CN(C)Cc1nc(Nc2ccc(-c3cnc4cc(F)ccn34)c3c2C(=O)NC3)ccc1C1CCOC1` (stereo not drawn), “circulating IFN-γ, IL-2, IgG” read “increased” (mouse EMT6 syngeneic tumour; oral, 75 mg/kg once daily; relative to: vehicle).
For `CC(C)(C)NCC(SS(=O)(=O)O)c1ccccc1` (stereo not drawn), the spleen weight was 0.6 g (Swiss Webster mice, Schistosoma mansoni-infected; 100 mg/kg x 4 doses from day 42 post-infection, perfusion day 56 post-infection).
`COC1OC(C)C(OC2OC(C)C(OS(=O)(=O)O)C(OC3OC(C)C(OC4OC(C)C(OS(=O)(=O)O)C(OS(=O)(=O)O)C4OS(=O)(=O)O)C(OS(=O)(=O)O)C3OS(=O)(=O)O)C2OS(=O)(=O)O)C(OS(=O)(=O)O)C1OS(=O)(=O)O` (stereo not drawn) gave a prothrombin time of 15 ± 0.2 s (human plasma; 128 µg/mL).
`CC(C)C[C@H](NC(=O)[C@H](CC(=O)O)NC(=O)CNC(=O)[C@@H](N)CCCNC(=N)N)C(=O)N[C@@H](C)C(=O)N[C@H](C(=O)N[C@@H](CC(C)C)C(=O)N[C@@H](CCCNC(=N)N)C(=O)N[C@@H](CCC(N)=O)C(=O)N[C@@H](CC(C)C)C(=O)N[C@@H](C)C(=O)N[C@@H](CCC(N)=O)C(=O)N[C@@H](CCC(=O)O)C(=O)N[C@@H](CC(=O)O)C(=O)NCC(=O)N[C@H](C(=O)N[C@H](C(=O)NCC(=O)N[C@H](C(=O)N[C@@H](CCCNC(=N)N)C(=O)NCCOCCOCCOCCOCCOCCOCCOCCOCCOCCOCCOCCOCCC(=O)N[C@@H](CS)C(N)=O)C(C)C)C(C)C)C(C)C)[C@@H](C)O`: “fluorescence signal ratio” 2.17 and 8.98 and 0.87 (ex vivo NIR imaging; NOD/SCID mice, xenograft, H460 xenograft; intravenous, 30 µg, 24 h; relative to: lung).
The IOP of `NC[C@@H](C(=O)Nc1ccc(-c2cn[nH]c2)cc1)c1ccccc1` is reported as 17.1 mmHg (tonometry; Macaca cyclopis, ocular normotensive; ocular, 0.1%, 4 h).
For `COC1OC(C)C(OS(=O)(=O)O)C(OC2OC(C)C(OS(=O)(=O)O)C(OC3OC(C)C(OS(=O)(=O)O)C(OC4OC(C)C(OS(=O)(=O)O)C(OC5OC(C)C(OS(=O)(=O)O)C(OC6OC(C)C(OS(=O)(=O)O)C(OS(=O)(=O)O)C6O)C5O)C4O)C3O)C2O)C1O` (stereo not drawn), the prothrombin time was 15.1 ± 0.3 s (human plasma; 128 µg/mL).
For `COC1CN([C@H]2CC[C@H]([C@@]3(C)Oc4c(Cl)cc(C(=O)NCc5c(SC)cc(C)[nH]c5=O)c(C)c4O3)CC2)C1`, “log2 fold change” read 0.995 (RNA-seq, refers to: DLC1 mouse homolog; mouse, HT-1376 xenograft, whole blood; dose not given; relative to: vehicle).
`COC1OC(C)C(OC2OC(C)C(OS(=O)(=O)O)C(OC3OC(C)C(OC4OC(C)C(OS(=O)(=O)O)C(OS(=O)(=O)O)C4O)C(OS(=O)(=O)O)C3O)C2O)C(OS(=O)(=O)O)C1O` (stereo not drawn) gave a prothrombin time of 15.1 ± 0.2 s (human plasma; 128 µg/mL).
`CCCCCCCCCCCCCCCC(=O)OCC(CSC[C@H](N)C(=O)N[C@@H](CO)C(=O)N[C@@H](CCCCN)C(=O)N[C@@H](CCCCN)C(=O)N[C@@H](CCCCN)C(=O)N[C@@H](CCCCN)C(=O)NCCCCCC(=O)N[C@@H](CCCCN)C(=O)N[C@@H](CC(C)C)C(=O)N[C@H](C(=O)N[C@@H](Cc1ccccc1)C(=O)N[C@@H](Cc1ccccc1)C(=O)N[C@@H](Cc1ccc2ccccc2c1)C(=O)O)C(C)C)OC(=O)CCCCCCCCCCCCCCC` (stereo partly drawn): “amyloid plaque load” 0.0783 and 0.182 and 0.476 and 0.000183 (thioflavin S staining; APP/PS1 transgenic mouse, hippocampus; intrahippocampal, unit not given; relative to: injected over adjacent side).

Repeated from above:
The IOP of `NC[C@@H](C(=O)Nc1ccc(-c2cn[nH]c2)cc1)c1ccccc1` is reported as 17.1 mmHg (tonometry; Macaca cyclopis, ocular normotensive; ocular, 0.1%, 4 h).
For `CN(C)Cc1nc(Nc2ccc(-c3cnc4cc(F)ccn34)c3c2C(=O)NC3)ccc1C1CCOC1` (stereo not drawn), “circulating IFN-γ, IL-2, IgG” read “increased” (mouse EMT6 syngeneic tumour; oral, 75 mg/kg once daily; relative to: vehicle).
`COC1OC(C)C(OS(=O)(=O)O)C(OC2OC(C)C(OS(=O)(=O)O)C(OC3OC(C)C(OS(=O)(=O)O)C(OC4OC(C)C(OS(=O)(=O)O)C(OC5OC(C)C(OS(=O)(=O)O)C(OC6OC(C)C(OS(=O)(=O)O)C(OS(=O)(=O)O)C6OS(=O)(=O)O)C5OS(=O)(=O)O)C4OS(=O)(=O)O)C3OS(=O)(=O)O)C2OS(=O)(=O)O)C1OS(=O)(=O)O` (stereo not drawn) has a prothrombin time of 15.4 ± 0.5 s (human plasma; 128 µg/mL).
